Experimental data collected from several papers.
Compare with care: the assays were run in different laboratories. ± gives the spread as reported.

Structure (SMILES) | assay | test system | setting | tissue uptake
CC(C)[C@H](NC(=O)[C@@H]1CCCN1C(=O)[C@H](CCCNC(=N)N)NC(=O)[C@H](CS)NC(=O)[C@H](Cc1c[nH]c2ccccc12)NC(=O)[C@H](CCCNC(=N)N)NC(=O)[C@@H](Cc1ccccc1)NC(=O)[C@H](Cc1c[nH]cn1)NC(=O)[C@H](CCC(=O)O)NC(=O)[C@H](CS)NC(=O)[C@H](CS)NC(=O)COCCOCCNC(=O)[C@@H]1CC(=O)N[C@@H](CCCNC(=N)N)C(=O)NCC(=O)N[C@@H](CC(=O)O)C(=O)N[C@H](Cc2ccc(O)cc2)C(=O)N1)C(N)=O [technetium-99m labelled] |  | nude mice, M21 melanoma xenograft, kidney | intravenous, 0.037 MBq, 2 h | 22 ± 9.89 %ID/g
CCCC[C@H](NC(=O)CNC(=O)CNC(=O)CN1CCN(CC(=O)O)CCN(CC(=O)O)CCN(CC(=O)O)CC1)C(=O)N[C@H]1CC(=O)NCCCC[C@@H](C(N)=O)NC(=O)[C@H](Cc2c[nH]c3ccccc23)NC(=O)[C@H](CCCNC(=N)N)NC(=O)[C@@H](Cc2ccccc2)NC(=O)[C@H](Cc2c[nH]cn2)NC1=O [lead-203 labelled] |  | normal C57 mice, intestine | intravenous, 0.056 MBq, 2 h | 1.43 ± 0.58 %ID
N=C(N)NCCC[C@@H]1NC(=O)[C@H](CCCCNC(=O)CON=C[C@H](F)[C@@H](O)[C@H](O)[C@H](O)CO)NC(=O)[C@@H](Cc2ccc(O)cc2)NC(=O)[C@H](CC(=O)O)NC(=O)CNC1=O [fluorine-18 labelled] |  | nude mice U-87 MG tumour, intestine | intravenous, 2 h | 0.28 ± 0.19 %ID/g
NC12CNCCNCC(NCc3ccc(CNC(=O)CCCC(=O)NCc4ccc(-c5nncnn5)cc4)cc3)(CNCCNC1)CNCCNC2.[64Cu+2] |  | athymic nude mice SW1222 xenograft, lung | 1 h post injection, 24 h accumulation interval, together with: huA33-TCO pretargeting | 1.65 ± 0.51 %ID/g
CC(F)C(=O)NCCOCCOCCOCC(=O)N[C@@H](CCC(=O)NCCCC[C@@H]1NC(=O)[C@@H](Cc2ccc(O)cc2)NC(=O)[C@H](CC(=O)O)NC(=O)CNC(=O)[C@H](CCCNC(=N)N)NC1=O)C(=O)NCCCC[C@@H]1NC(=O)[C@@H](Cc2ccc(O)cc2)NC(=O)[C@H](CC(=O)O)NC(=O)CNC(=O)[C@H](CCCNC(=N)N)NC1=O (stereo partly drawn) [fluorine-18 labelled] | small-animal PET | female athymic nude mice, U-87 MG xenograft, kidney | intravenous, 3.7 MBq, 120 min | 2.19 ± 0.57 %ID/g
O=C([O-])c1cccc(CN(CCN(Cc2cn(Cc3ccccc3)nn2)Cc2cccc(C(=O)[O-])n2)Cc2cn(Cc3ccccc3)nn2)n1.[64Cu+2] |  | healthy athymic nude mice, heart | intravenous, 15 min | 2.12 %ID/g
CC(F)C(=O)NC[C@@H]1O[C@H](C(=O)NCCCC[C@@H]2NC(=O)[C@@H](Cc3ccc(O)cc3)NC(=O)[C@H](CC(=O)O)NC(=O)CNC(=O)[C@H](CCCNC(=N)N)NC2=O)[C@H](O)[C@H](O)[C@H]1O (stereo partly drawn) [fluorine-18 labelled] | small-animal PET | female athymic nude mice, U-87 MG xenograft, muscle | intravenous, 3.7 MBq, 60 min | 0.1 ± 0.02 %ID/g
CC(C)[C@H](NC(=O)[C@@H]1CCCN1C(=O)[C@H](CCCNC(=N)N)NC(=O)[C@H](CS)NC(=O)[C@H](Cc1c[nH]c2ccccc12)NC(=O)[C@H](CCCNC(=N)N)NC(=O)[C@@H](Cc1ccccc1)NC(=O)[C@H](Cc1c[nH]cn1)NC(=O)[C@H](CCC(=O)O)NC(=O)[C@H](CS)NC(=O)[C@H](CS)NC(=O)[C@@H]1CC(=O)N[C@@H](CCCNC(=N)N)C(=O)NCC(=O)N[C@@H](CC(=O)O)C(=O)N[C@H](Cc2ccc(O)cc2)C(=O)N1)C(N)=O [technetium-99m labelled] |  | C57 mice B16/F1 melanoma female, bone | iv, 2 h, together with: NDP-MSH 10 µg co-injected | 0.59 ± 0.2 %ID/g
CCCC[C@H](NC(=O)CNC(=O)CNC(=O)CN1CCN(CC(=O)O)CCN(CC(=O)O)CCN(CC(=O)O)CC1)C(=O)N[C@H]1CC(=O)NCCCC[C@@H](C(N)=O)NC(=O)[C@H](Cc2c[nH]c3ccccc23)NC(=O)[C@H](CCCNC(=N)N)NC(=O)[C@@H](Cc2ccccc2)NC(=O)[C@H](Cc2c[nH]cn2)NC1=O [gallium-67 labelled] |  | female C57 mice, B16/F1 melanoma, brain | intravenous, 0.037 MBq, 4 h | 0.08 ± 0.03 %ID/g

For quick reference, copied from above:
Structure (SMILES) | assay | test system | setting | tissue uptake
CC(C)[C@H](NC(=O)[C@@H]1CCCN1C(=O)[C@H](CCCNC(=N)N)NC(=O)[C@H](CS)NC(=O)[C@H](Cc1c[nH]c2ccccc12)NC(=O)[C@H](CCCNC(=N)N)NC(=O)[C@@H](Cc1ccccc1)NC(=O)[C@H](Cc1c[nH]cn1)NC(=O)[C@H](CCC(=O)O)NC(=O)[C@H](CS)NC(=O)[C@H](CS)NC(=O)[C@@H]1CC(=O)N[C@@H](CCCNC(=N)N)C(=O)NCC(=O)N[C@@H](CC(=O)O)C(=O)N[C@H](Cc2ccc(O)cc2)C(=O)N1)C(N)=O [technetium-99m labelled] |  | C57 mice B16/F1 melanoma female, bone | iv, 2 h, together with: NDP-MSH 10 µg co-injected | 0.59 ± 0.2 %ID/g
